Measured values from different studies.
Numbered parts are unrelated; each lists some results of a single study. Positions count from the first letter of the parent shown.

Study 1
Target: Histone acetyltransferase KAT6A, winged helix 2, GST fusion (KAT6A, Homo sapiens, UniProt Q92794, residues 85-181)
Method: protein binding microarray
Form: double-stranded DNA, one strand shown
Matrix: in vitro
Concentration: not given
Notes: 8-mer, flanks averaged, mean of 2 arrays, mostly near background
Reference: not given
Direction: higher = stronger binding
Construct (chain): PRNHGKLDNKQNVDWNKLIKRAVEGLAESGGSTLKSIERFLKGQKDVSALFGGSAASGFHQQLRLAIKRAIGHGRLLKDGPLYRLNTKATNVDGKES
Sequence | E-score
AACTCTGC | -0.0613
AGACAAGG | 0.0631
CAGCACGC | 0.167
ACAGGCAG | 0.0241
ACGTACCG | -0.117
GCACGTAA | -0.206
CTAAACTA | -0.258
ATAGGTGC | -0.234
CCCGAAGA | 0.0428
CAACTACG | -0.114
GGATCAAA | -0.0059
GCACCGGC | 0.087
CCGACGAC | 0.124
CCTTCTAG | -0.0918
ACGCGGGC | 0.192
CATCCCCA | -0.0788
ACGGTCAC | -0.103
CACACGGG | 0.00062
CGTTAGGA | -0.0257
ACTGCAAT | 0.07
ACGGCCGG | 0.181
CCTAGCAA | -0.0154
CGCACACC | 0.0244
CAATTTCG | -0.145
ACGCTCCT | 0.0113

Study 2
Target: Interferon regulatory factor 7, full length, phosphomimetic (IRF7, Homo sapiens, UniProt Q92985, residues 1-503, S101K/S471D/S472D/S475D/S476D/S477D/S483D/S484D/S487D)
Method: protein-binding microarray
Form: double-stranded DNA, one strand shown
Matrix: in vitro
Concentration: 250 nM
Notes: 60-bp whole probe
Added: salmon DNA 0.4 mg/ml
Reference: random background probes
Direction: higher = stronger binding
All sequences stand within: GCCTAGCAC … GTCTTGATTCGCTTGACGCTGCTG
Residues (chain): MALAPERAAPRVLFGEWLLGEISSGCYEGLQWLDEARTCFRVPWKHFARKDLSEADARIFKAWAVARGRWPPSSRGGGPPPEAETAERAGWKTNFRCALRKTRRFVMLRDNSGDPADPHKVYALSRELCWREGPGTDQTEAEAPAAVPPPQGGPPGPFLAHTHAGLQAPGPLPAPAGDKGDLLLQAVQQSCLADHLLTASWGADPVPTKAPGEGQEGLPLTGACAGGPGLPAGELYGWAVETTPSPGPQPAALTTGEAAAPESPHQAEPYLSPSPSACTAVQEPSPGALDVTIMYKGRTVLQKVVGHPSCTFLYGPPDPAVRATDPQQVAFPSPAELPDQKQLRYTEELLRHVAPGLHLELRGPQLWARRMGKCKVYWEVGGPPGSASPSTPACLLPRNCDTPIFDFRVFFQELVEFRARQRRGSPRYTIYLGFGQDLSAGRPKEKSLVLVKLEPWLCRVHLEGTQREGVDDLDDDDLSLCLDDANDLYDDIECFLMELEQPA
Sequence | log fluorescence [z-score]
TCAGGTATCGGGTATCGGTTAGTGCTA | 1.8
GTCGAACTGGGGTTTCGAGACGTGCTA | 2.63
TTTTTTTTTTTTTTTTTACTGTGCTAG | 0.593
GACGGACTGCACACTGGGGACGTGCTA | -0.775
AGTCATCTCCAAAGTCAGCCAGTGCTA | -0.344
GACGGTCTCCTACTTCTGACGTGCTAG | -0.301
ATAGGACTGCTTTTCCTTTAGTGCTAG | 1.2
TTAGAACTGAGTATCGAGTAGTGCTAG | 0.0493
TCACTTTTTTTTTTTTTACTGTGCTAG | 0.834
TCAGGTATCGACTATCGGTTAGTGCTA | 0.576
GACGAACTGGGGTATCGAGCCGTGCTA | -0.775
GACGGTTTTGGGTTTCGGGACGTGCTA | 4.08
TGTCCTTTTCTTTACTGATGGTGCTAG | 1.56
TTAGATTTCAGTGTCGATTAGTGCTAG | 0.102

Study 3
Target: CCNE2, cyclin fold, Cln2 fusion (human)
Method: yeast growth competition, sequencing
Matrix: yeast
Notes: strong parent motif
Reference: not given
Direction: higher = stronger binding
Starting sequence: BRCA2 docking peptide (human); PSIKRNLLNEFDR; partner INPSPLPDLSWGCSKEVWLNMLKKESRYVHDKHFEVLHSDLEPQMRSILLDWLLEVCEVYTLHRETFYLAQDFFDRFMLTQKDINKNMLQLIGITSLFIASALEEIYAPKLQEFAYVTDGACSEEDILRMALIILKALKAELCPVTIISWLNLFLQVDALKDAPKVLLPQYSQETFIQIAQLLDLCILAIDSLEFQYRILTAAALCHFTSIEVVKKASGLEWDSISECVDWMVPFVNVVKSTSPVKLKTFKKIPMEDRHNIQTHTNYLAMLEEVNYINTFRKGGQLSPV
Change | normalised enrichment score
ESIKRNLLNEFDR [P1E] | 2.48
PSIKRELLNEFDR [N6E] | 0.384
PSIKRNLLNEFDI [R13I] | 1.87
PSIKRNGLNEFDR [L7G] | 0.0192
PSIQRNLLNEFDR [K4Q] | -0.325
PSICRNLLNEFDR [K4C] | 2.89
PSIKPNLLNEFDR [R5P] | 0.247
PSIKKNLLNEFDR [R5K] | 0.179
PSIKRNLSNEFDR [L8S] | 1.18
PSIKRNLANEFDR [L8A] | 0.522
PSLKRNLLNEFDR [I3L] | 0.172
PSIKRNLLNKFDR [E10K] | 0.224
PSIKRLLLNEFDR [N6L] | 0.0957
PSIKRNLLNESDR [F11S] | -1.42
PSIKRKLLNEFDR [N6K] | 1.12
PSIKRNLLNENDR [F11N] | 0.0159
PSIKRNLLNEPDR [F11P] | 0.321
PSIKLNLLNEFDR [R5L] | -0.341
PSIKRNLLNRFDR [E10R] | 0.73
PSIKRHLLNEFDR [N6H] | 0.935
PSIKRNNLNEFDR [L7N] | -1.2
MSIKRNLLNEFDR [P1M] | 1.49
PSIKRWLLNEFDR [N6W] | 0.971
PSIKDNLLNEFDR [R5D] | 0.662

Study 4
Target: RNA binding protein fox-1 homolog 2, RRM domain, GST-SBP tag (RBFOX2, Homo sapiens, UniProt O43251-10, residues 100-194)
Method: RNA Bind-n-Seq
Form: RNA
Matrix: in vitro
Concentration: 365 nM
Notes: natural RNA segment, single round, ends assumed
Reference: no-protein control
Direction: higher = stronger binding
All sequences stand within: GGGAGUUCUACAGUCCGACGAUC … UGGAAUUCUCGGGUGCCAA
Target sequence (chain): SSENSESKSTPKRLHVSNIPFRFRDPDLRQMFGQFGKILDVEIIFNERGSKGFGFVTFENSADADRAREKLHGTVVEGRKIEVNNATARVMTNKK
Sequence | RBNS enrichment (R)
UGGACAUAAGUCUAGGUGUAGAAAUCCUUUCCUUUAUCAUAGAGGAUAUGGUUUACAUUACCGUUUGUUUUCAUUGUGAUUGCCCCUAUGUAACAAUCAUGAAUAUUAGA | 0.413
UUAAACCACGACCCAGGUCCUUGGUUCACAUGGAAUAAUAAAGAUGUGUUUUUAGAUGGCACAUUGGUCCAUUUGUACACACCUGUCAUCGGGAUCUUAGUACAUGGACU | 0.259
GAGCCUCUUCAUGCUCUAGUCACUGCCAAUACGAUGGAGAAUGUCAAAAAGGCAGUAGAACAGGUCAGAAACAUCCUGAAGCAGGGUAUUGAGACCCCAGAGGACCAGAA | 0.429
AAAUGUCAUCACACUGGAAAUUGUACUAUAUGUAAAAAAAAAAAAAAGUAUAGUUUUAUAUUUGAAAUGUAUGCAAAUUAUGGCCAUAUGGCUGAUUGGAAUGUACUACU | 0.414
AUGCAUAUUGUUUAUAAAGACACAUUUACAAUUUACUUUUAAUAUUAAAAAUUACCAUAUUAUGAAAUUGCUGAUAGUAUUUGAAGACUGAGUCUUGUGUGUUUCCCACC | 0.81
CAAAGAGAAUAACUUUGAACUGAGGGUGUGUAUCAGAGUAUGUACAUAUGUAAUAUACCCUUAUAUUAUGUAUGAGGGAUUUAAAAUAUUGAAAUGGUUUCCUAGUGGUA | 0.612
AAGCUGUGACAAUCAGAAAUGUCUCUUAGACAUUUCCAAAUGUCCCCUGGGGCAUGGGAGGGUUUCACAAAAUUGCCCACUUGUUAAGGACCCUGACUCUAAUACCACAC | 0.334
CGGAUGUACACCGUAGAAGUGCCAUUCAGUUGUACACACAUCUUUCCUCCUCCACAUCAUCCCCACGACCCUUCUAACUCCUGGCCUCUUCCAGCCAAAACGGGAAAAGU | 0.802

Some of these lines once more (study 3):
Change | normalised enrichment score
PSIKRNLANEFDR [L8A] | 0.522
PSICRNLLNEFDR [K4C] | 2.89
PSIKRELLNEFDR [N6E] | 0.384
PSIKRNLSNEFDR [L8S] | 1.18
PSIKRWLLNEFDR [N6W] | 0.971
PSIKRLLLNEFDR [N6L] | 0.0957
PSIKRHLLNEFDR [N6H] | 0.935
